Assay results pooled from the literature.
Each line is one published result; not all experiments were run side by side. ± gives the spread as reported.
CXCR4: C-X-C chemokine receptor type 4 (CXCR4, Homo sapiens, UniProt P61073)
GPR17 R283I short isoform: Uracil nucleotide/cysteinyl leukotriene receptor, short isoform (GPR17, Homo sapiens, UniProt Q13304, R283I)
chemosensory protein 1: chemosensory protein 1 (Chilo suppressalis, UniProt V9PY22)
SLC10A1: Hepatic sodium/bile acid cotransporter (SLC10A1, Homo sapiens, UniProt Q14973)
T1: RNA aptamer optimized Class I; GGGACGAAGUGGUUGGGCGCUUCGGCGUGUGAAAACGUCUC
T2: RNA aptamer; CUUGGUUUAGGUAAUGAG

CSVL
relative fluorescence increase (Protein farnesyltransferase (Homo sapiens, UniProt P49354+P49356); enzyme activity, substrate, fluorimetric; peptide; 3 µM, 30 min, together with: 9 µM farnesyl diphosphate; baseline: dansyl-GCVLS (set to 1.0)): 0

CN(Cc1ccc(CN(C)c2ccccc2)cc1)c1ccccc1
lowest effective concentration (CXCR4; binding, competition binding; MDA-MB-231; semi-quantitative screen, together with: biotinylated TN14003): 1000 nM

CCCCC#Cc1cn([C@@H]2O[C@H](COP(=O)(O)OP(=O)(O)O)[C@@H](O)[C@H]2O)c(=O)[nH]c1=O
breakthrough time change (GPR17 R283I short isoform; frontal affinity chromatography-MS; mutated receptor IAM column; concentration not given; baseline: wild type column): -2.4%

hirudin
inhibition of clot signal (Prothrombin, thrombin form (Mus musculus, UniProt P19221); Cy5/Cy7 ratiometric imaging; mouse tail-clip model; s.c., 2000 U/mouse, 20 min before probe): > 90%

C[N+](C)(C)CCOC(N)=O
GDP dissociation rate increase (Gi/o proteins; [3H]GDP binding SPA; CHO cell membranes; 10 µM, together with: [3H]GDP 500 nM; baseline: control): 6.3 to 6.5 fold

farnesene
fluorescence intensity of probe (chemosensory protein 1; ligand, competitive fluorescence binding; concentration not given, pH 7.4, highest concentration tested, together with: 2 µM fluorescent probe): 49.7 ± 1.29%

O=C(CCCCCCC(=O)Nc1ccccc1)NO
protons released on binding (HDAC8 (Homo sapiens, UniProt Q9BY41); ITC in four buffers; concentration not given, pH 7.5): 0.73 protons per ligand

O=C(/C=C/c1ccccc1)c1ccccc1O
Vmax (UGT1A9 (Homo sapiens, UniProt O60656); substrate; pH 7.4, 37 °C): 1010 pmol/mg/min

Oc1cc(Cl)ccc1Oc1ccccc1
Ki (Enoyl-[acyl-carrier-protein] reductase [NADPH] FabI (Staphylococcus aureus, UniProt Q6GI75); enzyme activity, inhibitor, progress curve kinetics, measured: NADPH): 0.12 ± 0.01 nM

O=C(CCn1c2ccccc2c2ccc(Cl)cc21)N(c1ccc(F)cc1)c1ccc(F)cc1
maximum fold increase (Proteasome subunit alpha type-2/Proteasome subunit alpha type-6, 20S proteasome (Homo sapiens, UniProt P25787+P60900); proteolysis, activator, fluorogenic peptide; purified 20S proteasome; up to 30 µM, together with: Suc-LLVY-AMC, Z-LLE-AMC, Boc-LRR-AMC; baseline: vehicle): 4.5

Nc1nc2c(ncn2[C@@H]2O[C@H](COP(=O)(O)OP(=O)(O)OP(=O)(O)O)[C@@H](O)[C@H]2O)c(=O)[nH]1
Kd (T1, RNA aptamer optimized Class I; ultrafiltration; apparent, together with: GTP): 76 nM

CCCCC(C(=O)COc1c(F)c(F)cc(F)c1F)n1cc(C2(N)CCN(C(N)=O)CC2)nn1 (stereo not drawn)
second-order inactivation rate constant (DPAP1 (Plasmodium falciparum, UniProt Q8IIJ9); inhibitor; parasite lysate; together with: (Pro-Arg)2-rhodamine substrate): < 20 M⁻¹ s⁻¹

CCCC/C=C\CCCCCCCCCC=O
remaining 1-NPN fluorescence (chemosensory protein 1; binding, competitive ligand, fluorescence competitive binding; highest concentration tested, pH 7.4, protein 2 µM, together with: 1-NPN 2 µM; baseline: no ligand): 43.6 ± 0.68%

N[C@@H](C(=O)N[C@@H]1C(=O)N2C(C(=O)O)=C(Cl)CS[C@H]12)c1ccccc1
taurocholate uptake (SLC10A1; inhibitor; HEK293 expressing NTCP; 100 µM, 5 min, together with: taurocholate 10 µM; baseline: no compound): 99.1 ± 6.2%

Cc1cc2nc[nH]c2cc1C
product formed (Nicotinate-nucleotide--dimethylbenzimidazole phosphoribosyltransferase (cobT, Dehalococcoides mccartyi, UniProt A5FRG9); alpha-ribazole phosphate formation, substrate; 250 µM, 30 min, pH 7.5, 30 °C, together with: 2 mM NaMN): 159.4 ± 1.13 µM

O=C(O)c1ccc(NC(c2ccc(Br)cc2)c2ccc3ccccc3c2O)cc1 (stereo not drawn)
remaining activity (CAAX prenyl protease 2 (Homo sapiens, UniProt Q9Y256); enzyme activity, inhibitor; 10 µM): < 40%

C[C@H](NC(=O)[C@H](Cc1ccccc1)NC(=O)[C@@H](NC(=O)[C@H](CCC(=O)O)NC(=O)[C@H](C)NC(=O)[C@H](CCCNC(=N)N)N(C)C(=O)[C@@H]1CCCN1C(=O)[C@H](CCCNC(=N)N)NC(=O)CNC(=O)c1ccc2c(c1)C1(OC2=O)c2ccc(O)cc2Oc2cc(O)ccc21)[C@@H](C)O)C(=O)N[C@@H](CCC(=O)O)C(=O)NCC(N)=O
time to half phosphorylation (AKT1 (Homo sapiens, UniProt P31749); substrate, CE-LIF; 25 µM, pH 7.0, 30 °C, enzyme 6 nM, together with: ATP 1 mM): 679 min

O=C(O)Cc1ccc(O)c(O)c1
NADH oxidase inhibition (NADH oxidase, rat; lysed brain mitochondria; concentration not given, 30 min preincubation): no inhibition

CC[C@H](C)[C@H](NC(=O)[C@H](CC(C)C)NC(=O)[C@H](CC(C)C)NC(=O)CNC(=O)[C@H](Cc1ccc(O)cc1)NC(=O)[C@H](CCCNC(=N)N)NC(=O)[C@H](CO)NC(C)=O)C(=O)N[C@@H](CCCCN)C(=O)N[C@@H](C)C(=O)N[C@@H](Cc1ccccc1)C(=O)N[C@@H](CO)C(=O)N[C@@H](CCSC)C(=O)N[C@H](C(=O)N[C@@H](C)C(=O)N[C@@H](C)C(=O)N[C@@H](CCC(=O)O)C(=O)N[C@H](C(=O)N[C@@H](C)C(=O)N[C@@H](CCCNC(=N)N)C(=O)N[C@@H](CCCNC(=N)N)C(=O)N[C@H](C(=O)N[C@@H](CCCNC(=N)N)C(=O)N[C@@H](CCC(=O)O)C(=O)N[C@@H](Cc1ccccc1)C(=O)N[C@@H](CCCNC(=N)N)C(N)=O)[C@@H](C)O)[C@@H](C)O)[C@@H](C)O
ΔΔG of calcium binding (calmodulin 1-148 (mammalian); calcium binding at sites I and II, equilibrium calcium titration; 2 eq; baseline: N-domain over C-domain sites): 1.01 ± 0.37 kcal/mol

CCCCOc1cc(C(=O)NCCN(CC)CC)c2ccccc2n1
taurocholate uptake (SLC10A1; inhibitor; HEK293 expressing NTCP; 100 µM, 5 min, together with: taurocholate 10 µM; baseline: no compound): 100 ± 1%

Cc1ccc(S(=O)(=O)NCc2ccc(CNC(=O)c3ccc(F)cc3)cc2)cc1
lowest effective concentration (CXCR4; binding, competitor, rhodamine fluorescence; MDA-MB-231; semi-quantitative screen, together with: biotinylated TN14003): 1 nM

Cc1cc(NC(=O)c2cccc(NC(=O)/C=C/CN(C)C)c2)ccc1Nc1nccc(-c2cccnc2)n1
inhibition (PIK3C3 (Homo sapiens, UniProt Q8NEB9); ATP-biotin probe labeling, KiNativ; A-375; 1 µM, 3 h, second of two sites): 6.4%

CCC/C=C/C=O
remaining 1-NPN fluorescence (Chilo suppressalis CSP2; binding, competitive ligand, fluorescence competitive binding; highest concentration tested, pH 7.4, protein 2 µM, together with: 1-NPN 2 µM; baseline: no ligand): 61.3 ± 3.02%

NC[C@H]1O[C@H](O[C@H]2[C@H](O)[C@@H](O[C@H]3O[C@H](CO)[C@@H](O)[C@H](N)[C@H]3O)[C@H](N)C[C@@H]2N)[C@H](N)C[C@@H]1O
Kd (T2, RNA aptamer; square wave voltammetry; pH 7.4, NaCl 100 mM, electrochemical aptamer sensor): 70 nM

CNc1nc(Cl)cc2c1ncn2[C@@H]1O[C@H](COP(=O)(O)OP(=O)(O)OP(=O)(O)O)[C@@H](O)[C@H]1O.N.N.N.N
breakthrough time change (GPR17 R283I short isoform; frontal affinity chromatography-MS; mutated receptor IAM column; concentration not given; baseline: wild type column): 21.4%

CN1CCN(CCCN2c3ccccc3Sc3ccc(Cl)cc32)CC1
taurocholate uptake (SLC10A1; inhibitor; HEK293 expressing NTCP; 100 µM, 5 min, together with: taurocholate 10 µM; baseline: no compound): 81 ± 2.5%

Cc1c(OCC(F)(F)F)ccnc1C[S+]([O-])c1nc2ccccc2[nH]1 (stereo not drawn)
relative binding (Alzheimer paired helical filaments; surface plasmon resonance; 150 µM, response per molecular weight; baseline: thioflavin S): 0.7

For quick reference, copied from above:
O=C(/C=C/c1ccccc1)c1ccccc1O
Vmax (UGT1A9 (Homo sapiens, UniProt O60656); substrate; pH 7.4, 37 °C): 1010 pmol/mg/min

Oc1cc(Cl)ccc1Oc1ccccc1
Ki (Enoyl-[acyl-carrier-protein] reductase [NADPH] FabI (Staphylococcus aureus, UniProt Q6GI75); enzyme activity, inhibitor, progress curve kinetics, measured: NADPH): 0.12 ± 0.01 nM

O=C(CCn1c2ccccc2c2ccc(Cl)cc21)N(c1ccc(F)cc1)c1ccc(F)cc1
maximum fold increase (Proteasome subunit alpha type-2/Proteasome subunit alpha type-6, 20S proteasome (Homo sapiens, UniProt P25787+P60900); proteolysis, activator, fluorogenic peptide; purified 20S proteasome; up to 30 µM, together with: Suc-LLVY-AMC, Z-LLE-AMC, Boc-LRR-AMC; baseline: vehicle): 4.5
